# Results collected from several papers.
# Values joined by “and” are separate records of one study, mostly repeats; a detail may differ. Numbers after ± are the reported error.
Structure (SMILES),target or system,assay,test system,conditions,scale,quantity,result
Cc1ccc(NC(=O)[C@H]2CCCN(C(=O)c3c(C)cccc3F)[C@H]2c2ccc(NC3CCCC3)cc2)cc1C(F)(F)F,human peripheral blood neutrophils,NET formation,,"1 µM, added: MPO-ANCA immune complex, C5a",,citrullinated histone H3 per neutrophil,11.3 and 9.61 and 7.15 and 9.98
CCCNC(=O)[C@H]1O[C@@H]1C(=O)N[C@H](C(=O)N1CCC[C@H]1C(=O)OC)[C@@H](C)CC,MCF-10A,"cell viability, MTT",,"72 h, dark",,EC50,49 ± 5.5 µM
CCn1cc(-c2cc(Cn3ccnc3)cc3c2CCN([C@H](c2cc(OC)ccn2)C2CC2)C3=O)c(C(F)(F)F)n1,SK-HEP1,"cell growth, inhibitor",,120 h,,EC50,22.2 µM
COc1ccc(NC(=O)c2c(Nc3ccccc3)sc(C#N)c2NC(=O)CNc2ccc(Cl)cc2)cc1,HepG2,flow cytometry,,"IC50, 24 h",,cells in G1,45.4 ± 5.12%
Cc1ccc(Cn2cc(COc3cccc(Cc4cnc(NC(=O)CSc5nc(C)cc(C)n5)s4)c3)nn2)cc1,PC-3M-luc,"cell viability, MTS",,10 µM,,inhibition,27 ± 0.2%
CC(=O)c1nn(-c2ccc(Cl)cc2)/c(=N/N=C(\C)c2ccc(NC(=O)c3ccc(Cl)cc3)cc2)s1,HepG2,,,0.312 µM,,viability,98.6%
CC(C)NCC(O)c1ccc(O)c(O)c1 (stereo not drawn),mouse ventricular cardiomyocytes,,,"dose not given, 0.287 s",,sarcomere length,1.8 µm
O=S(=O)(O)O,human neutrophils,"anion exchange, substrate, sulfate influx",,"pH 7.4, glucuronate medium, added: Cl-",,Km,12.5 mM
COc1ccc(NC(=S)N/N=C/c2cccc3cc4ccccc4nc23)cc1,HeLa,PI flow cytometry,,"IC50, 48 h",,cells in S phase,39%
CCc1cnc(N2CCC(c3nc(COc4ccc(-n5cnnn5)cc4)cs3)CC2)nc1,HEK-293T,"RNA-seq GSEA, item: HALLMARK_HEDGEHOG_SIGNALING",,concentration not given,direction not given,normalized enrichment score,1.47
Nc1ncnc2c1ncn2[C@@H]1O[C@H](CO)[C@@H](O)[C@H]1O,activated human T cells,,,316 nM,higher = more proliferation,T cell proliferation,70.2 a.u. and 66.4 a.u. and 64.3 a.u.
Cc1cnc2ccc3c(c2n1)N1CCC(O)N=C1N3C (stereo not drawn),BALB/c 3T3,colony forming efficiency,,50 µM,,colony number,0 colonies per plate
N#Cc1ccc(C[C@H](Nc2nnc(-c3cccc(Br)c3)s2)C(=O)N2CCc3ccccc32)cc1,human neutrophils,"calcium mobilization, agonist",,,,EC50,36.3 ± 6.7 µM
Cc1cc(Nc2ncc(Cl)c(Nc3ccccc3S(=O)(=O)C(C)C)n2)c(OC(C)C)cc1C1CCNCC1,CLB-BAR,"phosphoproteomics LC-MS/MS, item: SHC2 phosphorylation",,"200 nM, 60 min",reference: untreated,log2 fold change,-1.83
C#C[C@@]1(O)[C@@H](CO)O[C@@H](n2cc(I)c3c(N)ncnc32)[C@@H]1O,NCI60 panel,cell growth,,mean over panel,,TGI,-5.04 log M and -5.03 log M
C=CC1=C(C)c2cc3[n-]c(cc4nc(cc5[n-]c(cc1n2)c(C)c5C=C)C(C)=C4CCC(=O)O)c(CCC(=O)O)c3C.[Zn+2],SH-SY5Y,"RNA-seq, item: CEBPD mRNA",,"5 µM, 5 h",reference: untreated cells,fold change,3.31
CCCN1CCN(c2ccc3[nH]c(-c4ccc5[nH]c(-c6cc(OC)c(OC)c(OC)c6)nc5c4)nc3c2)CC1,Malme-3M,SRB,,"10 µM, 48 h",,growth percent,7.58%
CC(C)(C)c1ccc(C(O)CCCN2CCC(C(O)(c3ccccc3)c3ccccc3)CC2)cc1 (stereo not drawn),MCF-10A,CellTiter-Glo,,concentration not given,"reference: normalised, mean of replicates",viability,26.1%
Cn1cc(-c2ccc(-c3cncc(Cl)c3N3CCC4(CCNC4=O)CC3)cc2)cn1,COLO 205,"microarray, item: OPTN",,"concentration not given, 6 h, gene set Optineurin",reference: untreated cells,fold change in expression,3.98
COc1cc(N2CCC(N3CCN(C)CC3)CC2)ccc1Nc1ncc(Cl)c(Nc2ccccc2P(C)(C)=O)n1,Ba/F3 EML4-ALK v1,cell viability,,,,Emax,100%
COc1cnc2cccc(N3CCc4c(cc(Cn5ccnc5C)cc4-c4cn(C)nc4C(F)(F)F)C3=O)c2c1,FaDu,"cell growth, inhibitor",,120 h,,EC50,> 30 µM
O=C(Nc1nnc2n3c(nc(-c4ccc(Cl)cc4)c1-2)SCC3=O)c1ccccc1,OVCAR-4,SRB,,"10 µM, NCI60 single-dose screen",reference: untreated,cell growth,99.7%
CCn1cc(-c2cc(Cn3ccoc3=N)cc3c2CCN([C@@H](C)c2cc(OC)ccn2)C3=O)c(C(F)(F)F)n1,SNU1066,cell growth,,120 h,,EC50,3.23 µM
CSc1nc(-c2ccc(Cl)cc2)c2c(NC(=O)c3ccccc3)nnc-2[nH]1,MDA-MB-231/ATCC,NCI60 SRB,,10 µM,,growth percent,80.1%
CC(C)(C)c1cc(O)ccc1O,HepG2,"extracellular flux, item: reserve respiratory capacity",,"1 h, distribution mode 2",,point of departure,14.1 µM
CCNCc1nc2c(N)nc3ccccc3c2n1CC(C)(C)O,Toxoplasma gondii,"parasite growth, luciferase reporter","HFF, tachyzoite",72 h,,EC50,30 µM
CC(=O)Nc1ccc(/C(C)=N/N=c2\sc(C(C)=O)nn2-c2ccc(C)cc2)cc1,MCF7,MTT,,10 µM,,cytotoxicity,94.6%
COc1c(C)c(OC(=O)c2ccccc2)c(C)c(O)c1C(=O)/C=C/c1ccccc1,FaDu,SRB,,,reference: normal over FaDu IC50,selectivity index,> 1.32
Nc1cccc2c1C(=O)N(C1CCC(=O)NC1=O)C2=O (stereo not drawn),RPMI-8226,"flow cytometry, item: CD294",,concentration not given,reference: comparator compound alone,surface marker level,188%
COc1c(C)c(OS(=O)(=O)c2ccc3ccccc3c2)c(C)c(O)c1C(=O)/C=C/c1ccccc1,FaDu,SRB,,,reference: normal over FaDu IC50,selectivity index,1.44
O=C(C[C@@H](C(F)F)n1ccc(F)n1)N1CCC(O)(Cn2cnc3c(cnn3-c3ccc(F)cc3)c2=O)CC1,CHP-212 parental,annexin V/PI flow cytometry,,"0.1 µM, 48 h",,apoptotic cells,24.3%
C=CCNC1=C2C[C@@H](C)C[C@H](OC)[C@H](O)[C@@H](C)/C=C(\C)[C@H](OC(N)=O)[C@@H](OC)/C=C\C=C(/C)C(=O)NC(=CC1=O)C2=O,MYBPC3 mutant iPSC-derived cardiomyocytes,item: MYH,,,reference: vehicle,bottom of curve,57.5%
CN(C)C(=O)c1cc2cnc(Nc3ccc(N4CCNCC4)cn3)nc2n1C1CCCC1,human neutrophils,,bEnd.3 endothelial cells,"1 to 10 µM, added: fMLF",,neutrophil adhesion,decreased
Cn1c(Nc2nc3ccc(C(F)(F)F)cc3s2)nc2cc(C(=O)NCCOCCO)ccc21,SH-SY5Y,"RNA-seq, item: EDN1 mRNA",,"5 µM, 5 h",reference: untreated cells,fold change,2.76
C=C1CC[C@@H]2[C@](C)(CCC[C@]2(C)C(=O)O)[C@H]1CC/C(C)=C/CO,neuroblastoma cells,Fura-2 ratiometric,,concentration not given,,calcium signalling,no effect
CCCCCCCC(=O)Nc1ncc(Cc2cccc(OCc3cn(CCOC)nn3)c2)s1,PC-3M-luc,"cell viability, MTS",,10 µM,,inhibition,21.2 ± 13.8%
NC1(c2ccc(-c3nc4ccn5c(=O)[nH]nc5c4cc3-c3ccccc3)cc2)CCC1,MDA-MB-468,"flow cytometry, PI staining",,"EC60 concentration, 72 h, DMSO 39.2",,cells in G0/G1 phase,47.1%
Cc1cccc(-c2[nH]c(CNc3ccccc3F)nc2-c2ccc3ncnn3c2)n1,MM1.S pomalidomide-resistant,XTT,,0.5 µM,reference: untreated,viability,98%
CC/C(=N\NC(=O)C(C)Nc1ccccc1)c1ccc(O)c(C)c1O (stereo not drawn),SK-OV-3,"Western blot, item: phospho-YAP",,"10 µM, 3 h, 2D culture, unit not given",reference: total YAP,protein level,0.31 ± 0.16
O=C(O)c1ccc2c3c1cccc3c(=O)n1c3ccccc3nc21,C3H10T1/2-derived adipocytes overexpressing Dlat-Flag,,,"10 µM, 24 h",reference: Dlat overexpression without compound,"Ucp1, PGC1α, AMPKα phosphorylation",decreased
Cn1cc(-n2cnc3c(NCc4nc5cc(Cl)c(Cl)cc5[nH]4)nc(N4CCOCC4)nc32)cn1,MDA-MB-468,"cell viability, CellCounting-Lite",,"8.23 nM, 37 °C",higher = more viable cells,luminescence signal,257000 a.u. and 313000 a.u. and 297000 a.u.
O=C(c1ccc(Nc2nccc(-c3cc4ccccc4s3)n2)cc1)N1CCC(N2CCCC2)CC1,Toxoplasma gondii,"parasite growth, luciferase reporter","HFF, tachyzoite",72 h,,EC90,4.27 µM
O=C(O)c1cc(N2N=C(C(F)(F)F)/C(=C/c3ccc(-c4ccccc4)o3)C2=O)ccc1Cl,platelets,,,"concentration not given, added: A23187",,Ca2+ release and influx,decreased
CCCN1CCN(c2ccc3[nH]c(-c4ccc5[nH]c(-c6ccc(OCC)c(OCC)c6)nc5c4)nc3c2)CC1,Malme-3M,SRB,,"10 µM, 48 h",,growth percent,-82.4%
O=C(/C=C/C=C/C=C/C1CCCCC1)NC1=C[C@@](O)(/C=C/C=C/C=C/C(=O)NC2=C(O)CCC2=O)[C@@H]2O[C@@H]2C1=O,SBC-5,"cell growth, CellTiter-Glo",,78 h,,GI50,> 30 µM
CCOC(=O)/C=C\C(=O)OCC,HepG2,item: glutathione,,"24 h, distribution mode 2",,point of departure,245 µM
Cc1cc(=O)[nH]n1-c1nc(-c2ccc(Cl)cc2)c2c(NC(=O)c3ccccc3)nnc-2[nH]1,Malme-3M,SRB,,"10 µM, NCI60 single-dose screen",reference: untreated,cell growth,90.1%
CCC(=O)N1CCC(COCC(=O)N2CCN(c3nc(-c4cnc(N)nc4C(F)F)nc(N4CCOC[C@@H]4C)n3)CC2)CC1,MDA-MB-453,resazurin growth rate inhibition,,72 h,,GR50,53.4 nM
Cn1cc(Nc2nccc(-c3ccc4c(c3)CN(C3COC3)CC[C@H]4NC(=O)c3cn(C(C)(C)C)nn3)n2)cn1,mouse splenic B cells,item: ERK/MAPK signalling,,"30 mg/kg, IgD-activated in vivo","reference: vehicle, direction not given",pathway activation z-score,2.12
COc1ccc(-n2nc(C(C)=O)s/c2=N\N=C(/C)c2ccc(NC(=O)c3ccccc3)cc2)cc1,HepG2,,,0.312 µM,,toxicity,10.6%
C[C@H]1Oc2cc(cnc2N)-c2c(nn(C)c2C#N)CN(C)C(=O)c2ccc(F)cc21,Ba/F3 EML4-ALK variant 1 S1206Y,cell viability,,,,Emax,100%
